Results of several laboratories.
Parts stem from different laboratories: compare values within a part only.

Sample 1
Target: Interferon regulatory factor 5, full length, phosphomimetic (IRF5, Homo sapiens, UniProt Q13568-2, residues 1-514, K96S/S451D/S453D/S456D/S462D)
Method: protein-binding microarray
Form: double-stranded DNA, one strand shown
Sample: in vitro
Concentration: 250 nM
Setting: 60-bp whole probe
Together with: salmon DNA 0.4 mg/ml
Reference: random background probes
Direction: higher = stronger binding
All sequences stand within: GCCTAGCAC … GTCTTGATTCGCTTGACGCTGCTG
Strand	log fluorescence [z-score]
GACGCTTTCCTTCTCCTGACGTGCTAG	1.03
TTAGACATCGGGTTTCGATTAGTGCTA	7.08
TGTGCTTTCCTCGTGATGCTGTGCTAG	0.0853
TTAGGTTTCCCTATCCTTTAGTGCTAG	1.21
TTAGATTTCGGGTTACGATTAGTGCTA	5.93
GTTGCTCTCCGGGGTCTGTGAGTGCTA	-0.255
TTCTTTATGCACTCTTTACATGTGCTA	0.854
AACGGTATCGGTCTCGGGACGTGCTAG	5.72
GACGGACTGCGACTGGGGACGTGCTAG	-0.668

Sample 2
Target: Histone acetyltransferase KAT6A, winged helix 2, GST fusion (KAT6A, Homo sapiens, UniProt Q92794, residues 85-181)
Method: protein binding microarray
Form: double-stranded DNA, one strand shown
Sample: in vitro
Concentration: not given
Setting: 8-mer, flanks averaged, mean of 2 arrays, mostly near background
Reference: not given
Direction: higher = stronger binding
Construct (chain): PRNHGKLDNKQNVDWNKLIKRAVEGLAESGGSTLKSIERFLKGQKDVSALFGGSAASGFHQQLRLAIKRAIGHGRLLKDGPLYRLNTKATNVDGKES
Strand	E-score
AACTGTCG	-0.0219
CCTGGCAA	0.0389
CTCCAGAC	0.145
CGGGCGGC	0.157
CACGGTAC	-0.00613
TGCTGAAA	0.161
ACTCGTTG	-0.182
AGCCAGGG	0.0302

Sample 3
Target: Centromere-binding protein 1, full length, N-terminal tag (CBF1, Saccharomyces cerevisiae, UniProt P17106, residues 1-351)
UniProt P17106, sequence (whole entry, looked up): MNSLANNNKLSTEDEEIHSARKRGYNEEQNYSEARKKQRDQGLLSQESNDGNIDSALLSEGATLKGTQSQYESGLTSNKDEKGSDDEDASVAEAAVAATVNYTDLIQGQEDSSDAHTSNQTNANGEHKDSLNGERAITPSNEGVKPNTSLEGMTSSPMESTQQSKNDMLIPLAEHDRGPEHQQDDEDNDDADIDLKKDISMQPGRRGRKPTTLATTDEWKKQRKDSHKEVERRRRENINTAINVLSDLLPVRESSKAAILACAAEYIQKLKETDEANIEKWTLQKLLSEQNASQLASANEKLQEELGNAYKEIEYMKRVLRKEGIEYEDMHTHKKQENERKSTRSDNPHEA
Method: protein-binding microarray
Form: double-stranded DNA, one strand shown
Sample: in vitro
Concentration: 0.8 µM
Setting: whole 60-bp probe, no competitor
Direction: higher = stronger binding
All sequences stand within: … GTCTTGATTCGCTTGACGCTGCTG
Strand	fluorescence intensity [a.u.]
CTATCTCCCCCCTTCCTCGTGCTGCGCGACTGTTTC	575
CTAAAAGGTGGCAATCACGACTGAAAAGGGTACTTC	544
CTAAGGTAGTTGGGTCAGCTGAAGTAGTTGGGTTTC	597
CTACAAAAATGTTAACATGTGACATTCACGTCATTC	3730
CTAAATTCCAAGACTCTCACCTGCGACTGGTCGTTC	471
GAATAAATCACTTTACACGTTCTCGAGAACAGTTAG	526
CTAAACTTCTAATGTCACGCAAGAAGTGAAAGTTTC	576

Mixed results
Molecule	target	assay	system	setting	scale	quantity	result
PhoQ, residues 284 288 289 292 302 303 SMMNNA	PhoP, residues 12 14 15 18 19 NHFRA (Escherichia coli, UniProt P23836)	Sort-seq, refers to: YFP reporter	E. coli	PhoQ-PhoP variant library, together with: 10 µM Mg2+	reference: high Mg2+ state, higher = stronger signaling	fold induction	1.23

A few entries again (sample 3):
Strand	fluorescence intensity [a.u.]
CTATCTCCCCCCTTCCTCGTGCTGCGCGACTGTTTC	575
